Published values collected from several papers.
Every numbered part comes from another study and shows a few of its results, in no order.
Chain of UniProt Q00534 (whole entry, looked up): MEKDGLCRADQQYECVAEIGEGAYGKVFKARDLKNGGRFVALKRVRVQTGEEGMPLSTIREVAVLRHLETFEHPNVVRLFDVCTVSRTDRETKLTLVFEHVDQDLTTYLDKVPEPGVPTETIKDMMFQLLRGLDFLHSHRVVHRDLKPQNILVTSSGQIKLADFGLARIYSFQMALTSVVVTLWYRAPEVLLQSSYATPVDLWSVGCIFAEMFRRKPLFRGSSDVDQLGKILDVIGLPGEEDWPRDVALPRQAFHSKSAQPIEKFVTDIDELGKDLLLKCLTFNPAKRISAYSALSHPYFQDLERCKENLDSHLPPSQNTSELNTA
Chain of UniProt Q9NR20 (whole entry, looked up): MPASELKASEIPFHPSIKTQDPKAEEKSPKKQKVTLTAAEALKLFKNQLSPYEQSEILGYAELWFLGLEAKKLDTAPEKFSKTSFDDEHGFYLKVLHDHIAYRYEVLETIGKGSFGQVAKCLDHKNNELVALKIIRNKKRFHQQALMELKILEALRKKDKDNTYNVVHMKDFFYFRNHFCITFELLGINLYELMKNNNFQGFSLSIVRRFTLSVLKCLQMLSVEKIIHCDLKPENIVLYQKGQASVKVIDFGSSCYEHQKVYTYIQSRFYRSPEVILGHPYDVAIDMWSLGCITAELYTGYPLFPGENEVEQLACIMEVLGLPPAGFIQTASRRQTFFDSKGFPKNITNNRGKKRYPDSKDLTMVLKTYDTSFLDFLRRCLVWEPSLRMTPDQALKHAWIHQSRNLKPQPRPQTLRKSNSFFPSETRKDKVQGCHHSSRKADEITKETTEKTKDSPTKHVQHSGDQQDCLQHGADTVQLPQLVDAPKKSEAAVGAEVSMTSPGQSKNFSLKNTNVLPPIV
Chain of UniProt P34947 (whole entry, looked up): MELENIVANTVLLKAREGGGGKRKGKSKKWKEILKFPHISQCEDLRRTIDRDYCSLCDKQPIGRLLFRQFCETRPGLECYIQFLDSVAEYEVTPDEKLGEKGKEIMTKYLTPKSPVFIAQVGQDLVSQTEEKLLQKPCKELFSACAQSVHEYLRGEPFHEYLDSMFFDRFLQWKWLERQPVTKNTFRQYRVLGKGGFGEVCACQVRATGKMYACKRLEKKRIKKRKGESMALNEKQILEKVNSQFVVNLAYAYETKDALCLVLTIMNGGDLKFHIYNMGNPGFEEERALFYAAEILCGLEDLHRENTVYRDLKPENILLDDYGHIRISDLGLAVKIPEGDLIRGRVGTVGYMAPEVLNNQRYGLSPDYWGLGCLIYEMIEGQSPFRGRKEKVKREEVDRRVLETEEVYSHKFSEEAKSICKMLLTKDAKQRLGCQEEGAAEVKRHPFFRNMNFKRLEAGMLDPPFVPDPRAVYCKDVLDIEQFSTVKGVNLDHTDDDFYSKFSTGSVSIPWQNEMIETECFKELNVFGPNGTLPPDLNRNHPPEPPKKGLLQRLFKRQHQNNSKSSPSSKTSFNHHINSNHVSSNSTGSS
Chain of UniProt P62344 (whole entry, looked up): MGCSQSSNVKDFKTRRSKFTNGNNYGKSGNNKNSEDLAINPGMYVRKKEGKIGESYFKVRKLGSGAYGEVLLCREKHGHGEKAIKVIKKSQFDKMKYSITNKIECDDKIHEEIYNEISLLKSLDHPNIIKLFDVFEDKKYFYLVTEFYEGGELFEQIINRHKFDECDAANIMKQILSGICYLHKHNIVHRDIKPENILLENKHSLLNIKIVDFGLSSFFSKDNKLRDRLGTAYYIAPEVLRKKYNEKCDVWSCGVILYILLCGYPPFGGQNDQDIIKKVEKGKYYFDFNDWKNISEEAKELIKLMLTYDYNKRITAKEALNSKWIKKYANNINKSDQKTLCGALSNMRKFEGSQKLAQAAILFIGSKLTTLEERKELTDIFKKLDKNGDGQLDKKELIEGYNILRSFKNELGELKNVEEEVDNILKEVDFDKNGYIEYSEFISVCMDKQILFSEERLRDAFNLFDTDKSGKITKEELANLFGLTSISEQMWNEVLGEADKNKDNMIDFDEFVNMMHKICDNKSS
Chain of UniProt Q92630 (whole entry, looked up): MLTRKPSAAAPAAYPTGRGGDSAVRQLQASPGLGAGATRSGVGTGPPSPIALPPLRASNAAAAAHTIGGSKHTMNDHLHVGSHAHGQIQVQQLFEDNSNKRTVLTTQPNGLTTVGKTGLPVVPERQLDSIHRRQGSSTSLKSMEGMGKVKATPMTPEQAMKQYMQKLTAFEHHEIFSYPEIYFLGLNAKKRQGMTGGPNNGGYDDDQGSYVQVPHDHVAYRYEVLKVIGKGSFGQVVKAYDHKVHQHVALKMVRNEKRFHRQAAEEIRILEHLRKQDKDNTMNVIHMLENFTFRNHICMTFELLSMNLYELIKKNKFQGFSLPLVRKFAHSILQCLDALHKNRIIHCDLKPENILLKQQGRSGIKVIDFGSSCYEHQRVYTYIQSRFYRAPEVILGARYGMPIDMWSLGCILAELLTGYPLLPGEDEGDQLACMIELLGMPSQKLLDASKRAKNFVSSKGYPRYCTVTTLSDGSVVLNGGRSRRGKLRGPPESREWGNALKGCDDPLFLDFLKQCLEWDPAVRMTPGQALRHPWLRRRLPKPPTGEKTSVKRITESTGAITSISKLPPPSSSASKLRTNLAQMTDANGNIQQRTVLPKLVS
Chain of UniProt Q16566 (whole entry, looked up): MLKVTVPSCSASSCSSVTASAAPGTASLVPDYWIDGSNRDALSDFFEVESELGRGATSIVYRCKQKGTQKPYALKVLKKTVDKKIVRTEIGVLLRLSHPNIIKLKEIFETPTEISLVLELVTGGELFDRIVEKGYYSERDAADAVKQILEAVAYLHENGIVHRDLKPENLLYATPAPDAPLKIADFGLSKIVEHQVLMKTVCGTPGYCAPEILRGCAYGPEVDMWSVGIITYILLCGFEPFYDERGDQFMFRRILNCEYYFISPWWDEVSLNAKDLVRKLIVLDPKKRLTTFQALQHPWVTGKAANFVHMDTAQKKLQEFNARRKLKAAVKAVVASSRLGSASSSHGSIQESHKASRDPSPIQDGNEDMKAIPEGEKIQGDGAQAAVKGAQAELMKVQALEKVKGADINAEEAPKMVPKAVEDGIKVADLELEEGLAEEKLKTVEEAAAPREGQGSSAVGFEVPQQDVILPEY
Chain of UniProt P61075 (whole entry, looked up): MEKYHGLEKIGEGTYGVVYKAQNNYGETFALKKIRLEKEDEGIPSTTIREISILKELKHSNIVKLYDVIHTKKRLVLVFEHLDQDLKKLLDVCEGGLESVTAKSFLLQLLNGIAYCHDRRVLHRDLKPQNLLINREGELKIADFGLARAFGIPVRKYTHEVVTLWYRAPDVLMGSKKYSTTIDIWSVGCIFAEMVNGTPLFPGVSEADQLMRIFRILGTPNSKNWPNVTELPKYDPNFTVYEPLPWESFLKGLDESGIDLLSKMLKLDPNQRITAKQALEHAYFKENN
Chain of UniProt Q16513 (whole entry, looked up): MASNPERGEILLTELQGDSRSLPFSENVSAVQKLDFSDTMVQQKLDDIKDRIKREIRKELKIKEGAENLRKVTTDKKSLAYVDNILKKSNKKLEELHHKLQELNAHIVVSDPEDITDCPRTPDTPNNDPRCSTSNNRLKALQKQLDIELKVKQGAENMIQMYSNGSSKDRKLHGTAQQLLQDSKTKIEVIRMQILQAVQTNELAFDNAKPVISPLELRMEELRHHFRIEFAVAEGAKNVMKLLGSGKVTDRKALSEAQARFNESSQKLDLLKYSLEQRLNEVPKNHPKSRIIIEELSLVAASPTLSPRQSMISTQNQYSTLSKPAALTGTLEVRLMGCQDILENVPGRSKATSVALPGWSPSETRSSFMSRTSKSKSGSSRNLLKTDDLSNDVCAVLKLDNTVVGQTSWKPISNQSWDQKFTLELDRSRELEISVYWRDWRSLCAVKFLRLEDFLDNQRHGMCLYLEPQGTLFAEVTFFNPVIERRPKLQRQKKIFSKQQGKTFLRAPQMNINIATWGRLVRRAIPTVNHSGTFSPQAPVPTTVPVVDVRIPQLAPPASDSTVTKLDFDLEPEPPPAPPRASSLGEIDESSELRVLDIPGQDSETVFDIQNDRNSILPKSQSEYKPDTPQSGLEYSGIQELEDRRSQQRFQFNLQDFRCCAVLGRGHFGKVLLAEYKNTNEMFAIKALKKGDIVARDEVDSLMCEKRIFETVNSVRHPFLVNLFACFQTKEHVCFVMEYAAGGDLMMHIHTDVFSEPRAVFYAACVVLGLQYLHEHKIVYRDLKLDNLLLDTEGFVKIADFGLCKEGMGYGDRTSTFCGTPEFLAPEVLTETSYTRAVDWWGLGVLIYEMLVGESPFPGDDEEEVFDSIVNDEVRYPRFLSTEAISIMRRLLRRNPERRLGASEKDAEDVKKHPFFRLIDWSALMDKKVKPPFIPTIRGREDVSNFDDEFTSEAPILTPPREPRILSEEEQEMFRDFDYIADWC
Chain of UniProt Q9NY57 (whole entry, looked up): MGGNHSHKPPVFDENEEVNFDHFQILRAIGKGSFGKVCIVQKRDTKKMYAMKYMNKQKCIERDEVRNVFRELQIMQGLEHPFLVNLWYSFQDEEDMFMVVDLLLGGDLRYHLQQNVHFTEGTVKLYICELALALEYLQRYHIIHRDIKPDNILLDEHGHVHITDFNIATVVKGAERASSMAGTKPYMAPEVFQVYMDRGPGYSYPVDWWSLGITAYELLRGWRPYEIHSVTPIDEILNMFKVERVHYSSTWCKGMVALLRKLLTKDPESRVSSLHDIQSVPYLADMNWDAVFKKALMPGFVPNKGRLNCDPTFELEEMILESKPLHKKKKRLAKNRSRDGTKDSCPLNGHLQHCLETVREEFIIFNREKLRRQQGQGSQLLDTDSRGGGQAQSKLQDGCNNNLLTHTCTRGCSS

Block 1 — read-out: cell-free assay; tested at: 0.5 µM
Structure (SMILES): O=c1[nH]c2ccccc2n1C1CCN(Cc2ccc(-c3[nH]c4cc5ncnc5cc4nc3-c3ccccc3)cc2)CC1
| target | remaining signal [%] |
| --- | --- |
| Cyclin-dependent kinase 6, with cyclin D1 (CDK6, Homo sapiens, UniProt Q00534) | 105 |
| Serine/threonine-protein kinase 3 (STK3, Homo sapiens, UniProt Q13188) | 103 |
| Calcium/calmodulin-dependent protein kinase type IV (CAMK4, Homo sapiens, UniProt Q16566) | 101 |
| Dual specificity tyrosine-phosphorylation-regulated kinase 2 (DYRK2, Homo sapiens, UniProt Q92630) | 107 |
| Dual specificity tyrosine-phosphorylation-regulated kinase 4 (DYRK4, Homo sapiens, UniProt Q9NR20) | 109 |
| Cyclin-dependent kinase 6, with cyclin D3 (CDK6, Homo sapiens, UniProt Q00534) | 99.1 |
| Cyclin-dependent kinase 1, with cyclin A (CDK1, Homo sapiens, UniProt P06493) | 102 |
| Serine/threonine-protein kinase WNK2 (WNK2, Homo sapiens, UniProt Q9Y3S1) | 115 |
| G protein-coupled receptor kinase 5 (GRK5, Homo sapiens, UniProt P34947) | 109 |
| Serine/threonine-protein kinase N2 (PKN2, Homo sapiens, UniProt Q16513) | 73.2 |

Block 2 — read-out: cell-free assay; technique: competition with immobilised ligand; tested at: 1 µM
SMILES: O=C(NCc1ncc(C(F)(F)F)cc1Cl)c1ccc2c(c1)C1(CCS(=O)(=O)CC1)[C@@H](C1CC1)N2S(=O)(=O)c1ccc(F)cc1
| target | remaining binding |
| --- | --- |
| Cyclin-dependent kinase 2 homolog (CRK2, Plasmodium falciparum, UniProt P61075) | 97% |
| Serine/threonine-protein kinase 32B (STK32B, Homo sapiens, UniProt Q9NY57) | 96% |
| Calcium-dependent protein kinase 1 (CDPK1, Plasmodium falciparum, UniProt P62344) | 100% |

Block 3 — read-out: peptide-MHC binding; form: peptide; tested at: concentration not given
Target: HLA class I histocompatibility antigen, A alpha chain, allele A*80:01 (Homo sapiens, UniProt P04439)
| Sequence | binding |
| --- | --- |
| APFARLLNL | inactive |
| DLEKYNLAF | inactive |
| FAEGVIAFL | inactive |
| HQKKNEISF | inactive |
| YLKKLDDFY | inactive |
| SAEVVTLWY | inactive |
| LEARVNLSV | inactive |
| VMTDGPANK | inactive |

Block 4 — organism: Sarcocystis neurona; read-out: parasite growth; tested at: concentration not given; notes: second screen; baseline: untreated
| SMILES | log2 fold change |
| --- | --- |
| CCCCCCCCCOc1ccc2[nH]cc(CCN)c2c1 | 0.17 |
| C=C(C)CN1CC[C@]23c4c5ccc(O)c4O[C@H]2c2[nH]c4ccccc4c2C[C@@]3(O)C1C5.Cl.O | 0.51 |
| C[N+]1(CCC(C(N)=O)(c2ccccc2)c2ccccc2)CCCCC1.[Br-] | 0.16 |

For quick reference, copied from above (block 2):
| target | remaining binding |
| --- | --- |
| Calcium-dependent protein kinase 1 (CDPK1, Plasmodium falciparum, UniProt P62344) | 100% |
| Cyclin-dependent kinase 2 homolog (CRK2, Plasmodium falciparum, UniProt P61075) | 97% |
| Serine/threonine-protein kinase 32B (STK32B, Homo sapiens, UniProt Q9NY57) | 96% |
